# Measured values pooled from the literature.
# Numbered parts are unrelated; each lists some results of a single study.

# Set 1 — technique: RNA Bind-n-Seq; molecule type: RNA; matrix: in vitro; concentration: 365 nM; relative to: no-protein control; direction: higher = stronger binding
# Target: RNA binding protein fox-1 homolog 2, RRM domain, GST-SBP tag (RBFOX2, Homo sapiens, UniProt O43251-10, residues 100-194)
# Setting: natural RNA segment, single round, ends assumed
# Target sequence (chain): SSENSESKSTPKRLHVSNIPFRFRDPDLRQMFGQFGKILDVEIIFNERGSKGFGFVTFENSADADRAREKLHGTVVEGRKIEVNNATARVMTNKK
Strand,RBNS enrichment (R)
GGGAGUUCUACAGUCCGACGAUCUCUUACAAAACCACUUCCUCCCCACCCGCUUGCUGCCAAGGGGCGGGUUGCGGUGCAUGAAACCGCUGGGUCCUGGCUGUCACUCCUGUUGGGGGUCUGAAGGUGGCUGGUGGAAUUCUCGGGUGCCAA,2.33
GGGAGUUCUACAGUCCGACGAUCUAUAUAUGUGUAUAAAUAUAUGUAUAUCCCAGCGGCACUUUAUACUGUUCACUGUACAAAAGCUUACAGUUUUCCACAAGGACUUUAAUAACUAGCUGGGAAAAGACGAUUGGAAUUCUCGGGUGCCAA,0.299
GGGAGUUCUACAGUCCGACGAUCAAGGUUAAUAGCACCGGGGAACAAUUUCUCUGGGUGAGAAUUGGGACUCUGUUGCUGGUCUUCUCAGUUCAUUUCCUGAGGUGGAUUUACUGAGAGAAGGUGAAAUAAAGUGGAAUUCUCGGGUGCCAA,0.49
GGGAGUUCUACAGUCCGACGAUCCAUGAUAUAAAAAUAUAUGCUGAAUUACUUGUGAAGAAUGCAUUUAAAGCUAUUUUAAAUGUGUUUUUAUUUGUAAGACAUUACUUAUUAAGAAAUUGGUUAUUAUGCUUUGGAAUUCUCGGGUGCCAA,0.379
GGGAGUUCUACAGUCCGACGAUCUAAUAGUAUUGAAUGGGGUAUUUACUGUUGAUUAACCUCCUUAGAGAAAAUUAAUGAAUGAGAUGACUAACGGUAGAAAAGUUAUUGCCUAGGAGUGUGAGACUGAUGUUUGGAAUUCUCGGGUGCCAA,5.08
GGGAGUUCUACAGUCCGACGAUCGAGAAUCAAGAAAACACCCAGAAAGGCCUUAAUGACCUCAUAGGCACUCUUCCAAAAAGACAACAGAACUGGAAUGAGAGGCCUGGGUCUGUCUCCUGCCUUAGCAGGCCUGGAAUUCUCGGGUGCCAA,0.354
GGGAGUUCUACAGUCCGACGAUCUCUGCAUUGUAGUCUGAGUGUGCCACAUGUUAGCAAUGUGACCUUGGGCCACACACCUCUUCUGGGCCUUACUUUGCUCUGCUGUAAGGUGUGGGCAUUUAAGAGGUACCUGGAAUUCUCGGGUGCCAA,0.243
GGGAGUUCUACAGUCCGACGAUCCACGUCCAAAACAAAAGAUUAUUCCAGAAGAUACCUCAUCCUAUGCCUGAAAGGCUCCACAGCAUGGCGUCCGUCUCCCAGGGUUCUGAUCCGUCUCCUCACGGUGCAAUUGGAAUUCUCGGGUGCCAA,0.409

# Set 2 — technique: DNA-protein interaction ELISA; molecule type: double-stranded DNA, one strand shown; matrix: in vitro, bacterial lysate; concentration: not given; setting: whole dsDNA probe, crude lysate protein; relative to: highest signal in screen; direction: higher = stronger binding
# Target: Probable WRKY transcription factor 33, C-terminal DNA-binding domain (WRKY33, Arabidopsis thaliana, UniProt Q8S8P5, residues 346-449)
# Residues (chain): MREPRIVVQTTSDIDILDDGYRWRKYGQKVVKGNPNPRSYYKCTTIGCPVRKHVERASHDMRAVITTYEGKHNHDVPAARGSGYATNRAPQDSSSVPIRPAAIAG
Strand,relative absorbance
AAAAAACTGTCTGTCCTATATCACTTAAAA,29.7 % of maximum
AAAAAACGCAACTCCGGATGTGGGGTAAAA,42.1 % of maximum
AAAAAATTGCACCTGATACTAGGGTTAAAA,44.6 % of maximum
AAAAAAATTGTATCATACTTCAGTTGAAAA,27.5 % of maximum
AAAAAATTCCTGTCCGCTCTCGCTCCAAAA,58.1 % of maximum
AAAAAATTCACTTTTACCTTTGTGTTAAAA,61.8 % of maximum

# Set 3 — technique: protein-binding microarray; molecule type: double-stranded DNA, one strand shown; matrix: in vitro; concentration: 940 nM top; setting: 60-bp whole probe; added: salmon DNA 0.4 mg/ml; relative to: random background probes; direction: higher = stronger binding; shared flanks, not repeated: GCCTAGCAC … GTCTTGATTCGCTTGACGCTGCTG
# Target: Interferon regulatory factor 5, full length, phosphomimetic (IRF5, Homo sapiens, UniProt Q13568-2, residues 1-514, S451D/S453D/S456D/S462D)
Strand,fitted relative affinity
TCAGATGCCTTTCTCTTACTGTGCTAG,0.621 z-score
GCACGGCTCGTTATCCTATAGTGCTAG,-0.242 z-score
TTAGGTTTCGGGACTCGGTTAGTGCTA,7.91 z-score
GATGTTTTGAGTTTTCCTTCGTGCTAG,0.894 z-score
TCAGATTTCCCCACCATACTGTGCTAG,1 z-score
TCATCTTTCTCTGCTACCACTGTGCTA,2.02 z-score

# Single results of other studies
Molecule,target,assay,system,setting,scale,measurement,value
"PhoQ, residues 284 288 289 292 302 303 GASLAW","PhoP, residues 12 14 15 18 19 NHFRA (Escherichia coli, UniProt P23836)","Sort-seq, measured: YFP reporter",E. coli,"PhoQ-PhoP variant library, added: 10 µM Mg2+","relative to: high Mg2+ state, higher = stronger signaling",fold induction,0.633

# Repeated from above (set 1):
Strand,RBNS enrichment (R)
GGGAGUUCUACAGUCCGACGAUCUAAUAGUAUUGAAUGGGGUAUUUACUGUUGAUUAACCUCCUUAGAGAAAAUUAAUGAAUGAGAUGACUAACGGUAGAAAAGUUAUUGCCUAGGAGUGUGAGACUGAUGUUUGGAAUUCUCGGGUGCCAA,5.08
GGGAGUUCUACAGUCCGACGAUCUCUGCAUUGUAGUCUGAGUGUGCCACAUGUUAGCAAUGUGACCUUGGGCCACACACCUCUUCUGGGCCUUACUUUGCUCUGCUGUAAGGUGUGGGCAUUUAAGAGGUACCUGGAAUUCUCGGGUGCCAA,0.243
